# Experimental data from different studies.
# Every numbered part comes from another study and shows a few of its results, in no order.

# Study 1 — technique: RNA Bind-n-Seq; form: RNA; sample: in vitro; concentration: not given; notes: RNA with constant flanks, ends assumed; reference: input RNA pool; direction: higher = stronger binding
# Target: RING finger protein unkempt homolog, zinc fingers 1-6, GST-SBP tag (UNK, Homo sapiens, UniProt Q9C0B0, residues 30-357)
# Constant ends, left off below: GGGAGUUCUACAGUCCGACGAUC … CAACAGAGGAUUGAGCAUCA
# Target sequence (chain): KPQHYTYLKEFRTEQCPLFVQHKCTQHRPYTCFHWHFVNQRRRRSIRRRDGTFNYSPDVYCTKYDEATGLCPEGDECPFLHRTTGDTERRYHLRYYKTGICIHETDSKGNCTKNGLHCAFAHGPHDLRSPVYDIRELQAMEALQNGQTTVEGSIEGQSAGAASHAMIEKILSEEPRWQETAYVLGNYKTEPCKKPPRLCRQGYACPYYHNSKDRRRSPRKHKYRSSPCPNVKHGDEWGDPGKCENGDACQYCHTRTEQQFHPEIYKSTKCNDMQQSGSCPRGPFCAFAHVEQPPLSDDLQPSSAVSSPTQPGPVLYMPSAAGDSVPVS
Strand,bound/input enrichment [ratio]
GAACCUUGGGUGAUUUGUUCUGUAUCAGAAGACAAUAUCAUGCAAGUGUGGCAAAUGGAGUCCGUCCUUGACCACUAGUUUGAUGCCAUCUCCAUUUUGGGUGACCUGUUUCACCAGCAG,0.455
ACACCUAGUGACCGUUCCAGAUACAGGUUAGAUUUGGAAGGAAAUGAGUAUCCUGUUCACCGCACUCCAAAUUGUCACGAUCAUGAACGUAACCAUAAAGUGCCUCCACCUAUUAAACCU,0.223
AAGGAAACAAUGUUUAGUAGUUUGAGAAGCCACGGGAUGUACAGUUUGGUUAUCAGCCUUAACCGGCUACACUAGUGGUAGGUAGUGUAGACAGAGAUGUAAAUGUGCUGUUCCAAAACU,0.974
CAUGUAUCUGCAGUGCUUGAUGUGGAUUACUCUCCCACUGGGAAGGAGUUUGUGUCUGCCCGUUUCGAUAAAUCUAUUCGAAUCUUUCCUGUAGACAAAAGUCGAAGCAGGGAGGUAUAU,0.154
UUAGAUCUCUGAGGCUCAGAAAAAGGAAAGGGUGUCUCAUCCCGCUUUCUCGCUUUUCGCUUCCGCCAUGGCGGAGACAGGGGCCGGGAUAAGUGAGACCGUCACUGAGACAACGGUUAC,0.138
CCGAUGAACAGGAAAUCAAUGCCUGAGGCUGACUUCAGCUCCUGGACACCCUUAGAAUUCCCCGUUGAAACUUUCCAUGACUGGAUCACAGGGAAAAACCGACCGAGCUCAGGAAGCCUA,0.191
GAGGUACUUAUAAGACAUUUCCAAAGUCAAGUUAAUGAGCUGCAGAGUAAACAAGAGUCUCUCGCCGUUUCUGAAGUUCGAGAAGAAAUUCUACAGAAAGAGAUUACAAAACUCUUAGAA,0.15
CAUCUGCAGGAUAUUAAAGUGAAGUUUUCAGACCCUGGACAACCUAUGUCUUUUGUGCCCGAGUUUCACUUUGAACCCAACGACUACUUCACCAAUCCUGUCCUGACGAAAACGUACAAG,0.115
CCGGGACACUGCCUGAUGUUCGAUCACCGGCCACGGUCCUGGCGAGAGCUGCCCCUGCGGCCCGCUGACUUUGGUGUGCUGCAUAGGAAUGAGCUCUCGGGGGCUCUCACCGGGCUCACA,0.123
GAAAACGGACGAUGUAUUACUAAGCUGGAAAACAUGGGGUUUCGAGUGGGACAAGGAUUGACCGAAAGGUUUACAAAAGAUACUGCAAGGUUCAAGGAUGAGUUAGAUAUCAUGAAGUUC,0.523
GAGUGCCCUGUGUUUACACCGCCCGGAGGAGAGACGCUGGACCAGGUGAAAAUGCGUGGAACCGACUUUUUUGAAUUUCUUUGUCAACUAAUCCUGAAAGAAGCGGAUCAAAAAGAACAG,0.085

# Study 2 — technique: RNA Bind-n-Seq; form: RNA; sample: in vitro; concentration: 365 nM; reference: no-protein control; direction: higher = stronger binding
# Target: RNA binding protein fox-1 homolog 2, RRM domain, GST-SBP tag (RBFOX2, Homo sapiens, UniProt O43251-10, residues 100-194)
# Notes: natural RNA segment, single round, ends assumed
# Constant ends, left off below: GGGAGUUCUACAGUCCGACGAUC … UGGAAUUCUCGGGUGCCAA
# Residues (chain): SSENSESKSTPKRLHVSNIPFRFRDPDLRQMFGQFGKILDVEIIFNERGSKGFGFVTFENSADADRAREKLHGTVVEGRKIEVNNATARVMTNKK
Strand,RBNS enrichment (R)
GGUUUUACCAUGUUGGCCAGGCUGGUCUUAGACUCCUGACCUCAGUUGAUCCACCUGCCUCAGCCUCUGCAUUCAGUUUAUUCACAUAUUUUUGGUAACUCCCAUGGCAG,0.477
GACUUCCACAGAUUCUACUUCGAGAACGUGCUGGCCAAGAACAGCAAGCCGAUCCACACGACCAUCCUGAACCCACACGUGCACGUCAUUGGAGAGGAUGCCGCCUGCAU,4.9
AUACACAGUGUGUAGGAACAGCUGCCUGGGAAGCUGUGUGUCUGUCCCUCUGUUCACUACCCUCUUGCUCUGAGGCACGCUGGUUCUGGAGUAUAUUUCCACCUAUGAUG,0.796
GUGAUGAAUGUACUAUGUCUGAACAUAGAAACUCGGGCUUGAGUGAGAAGAGCUUGCACAGCCAACGAGACACAUUGCCUUCUGGAGCUGGGAGACAAAGGAGGAAUUUA,3.89
UCUCUACGAAUCUCAAUUCCAACUUCUCUGCAGAGUCUGUACAGUGAUUAAGCCAUGCCAGAUGGUCUUUGGUGCACACAGUUAUUUAAGAAUCCACUUCCACAGGUGGC,0.308
CGGAUUCCCCUCGCUGGAGAGGCUCCUGUCUGAUAGCGGUAGAUGAAAAAUAAGGUCGUUAUGACUUUGGCAACUUGCUUCAUUUCUUUUUCAUUUGACUUACAACACAC,0.566
UUCAAAAAGCACAAUCAAUCUUUUGUUUGAAAAUCUAUAUAAAGUACAACUUGCUUUUAGCAUGAUUAUUUUCCUAAAUAAAAAGACAAAGAAUUUACUUACUUUAUGUU,18.7
AUGGGAACAAGUGCCUUUGUUCGAAAAAUCUAUACUAAUGUGAAAAUUGACUAGAUAUCUGAGACAACAUGGAACUUCGGAUCAGUUUCUCUUUCAUGAGGGUGGAACUU,0.369
GCCGUUGUCUUUCUCAACUGCUACUGUCACGUUGCUUUCAAGAAAACAUUUUUUUUCAUUCCAGACUAACCAGAACCUGCAUUUAGAAUAGGAGUCCUUUCUCCGACCUU,0.611

# Study 3 — technique: protein binding microarray; form: double-stranded DNA, one strand shown; sample: in vitro; concentration: not given; reference: not given; direction: higher = stronger binding
# Target: Histone acetyltransferase KAT6A, both winged helices, GST fusion (KAT6A, Homo sapiens, UniProt Q92794, residues 1-181)
# Notes: 8-mer, flanks averaged, mean of 2 arrays, mostly near background
# Target sequence (chain): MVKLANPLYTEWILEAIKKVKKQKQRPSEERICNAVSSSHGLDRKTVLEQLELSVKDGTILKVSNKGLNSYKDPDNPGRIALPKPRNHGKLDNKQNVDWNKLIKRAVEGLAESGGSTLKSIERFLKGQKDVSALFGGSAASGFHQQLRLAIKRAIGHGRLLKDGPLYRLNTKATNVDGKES
Strand,E-score
ATGGCGGC,0.243
CAAAACAG,-0.169
GCACGGCC,0.271
ATACGGAT,0.0829
GCGCCAAA,0.244
GAGGCGGC,0.273
AACACGCC,0.231
CGCCATCC,0.0597
ACGCTTAC,0.14
TCTTCAAA,-0.174
ATCGTAAC,0.111
AACTCCGT,0.127
AGAGTAAC,-0.0267
AGCGATCC,0.108
TGCGGCAA,0.182
AGGCTGGA,-0.19
AGACGTAG,-0.157
CTGTAAAG,-0.0604
GCAAATCC,0.0267
CGTGACAA,0.0264
GGGGGTTA,-0.19
AACCGCTG,0.0569
CTATGTAC,-0.203
ATCGCTTC,0.0409
TCAGCTGA,-0.171

# Study 4 — technique: EMSA with sequencing; form: double-stranded DNA, one strand shown; sample: in vitro; concentration: 10 and 20 nM; reference: negative control set to 0; direction: higher = stronger binding
# Target: Hepatocyte nuclear factor 3-alpha (Foxa1, Mus musculus, UniProt P35582, residues 1-468, full length assumed)
# Notes: whole designed probe, mean of two concentrations, ends assumed
# Constant ends, left off below: GTGAGCGGTGCCCATTGATGGGGAAC … TTTCACTGGGATCGTGGGGAC
# Residues (chain): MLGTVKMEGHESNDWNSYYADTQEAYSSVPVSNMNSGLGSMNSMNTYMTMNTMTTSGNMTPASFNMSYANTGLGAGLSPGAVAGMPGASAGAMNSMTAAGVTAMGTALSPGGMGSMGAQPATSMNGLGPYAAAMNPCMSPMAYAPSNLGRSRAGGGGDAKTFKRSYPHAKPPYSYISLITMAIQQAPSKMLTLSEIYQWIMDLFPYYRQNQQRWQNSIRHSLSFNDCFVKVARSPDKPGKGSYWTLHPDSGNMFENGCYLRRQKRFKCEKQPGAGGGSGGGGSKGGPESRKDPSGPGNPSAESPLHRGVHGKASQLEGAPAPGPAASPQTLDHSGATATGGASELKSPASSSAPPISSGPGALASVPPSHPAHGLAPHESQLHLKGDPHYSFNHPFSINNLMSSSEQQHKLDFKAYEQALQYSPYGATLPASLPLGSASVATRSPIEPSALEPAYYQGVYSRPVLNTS
Strand,normalised bound fraction [ratio]
AAAGATGGCATGTTGTGATTATAAACCACAGAAGAAATCTCTAATTAGTCATCCTTCTCTGAAAAATTCATTAATACTGATTAAGCCTGCAGAGTCAACAGTGGAATTCTAGTCAAGCAGAACATTTATGGAGTGGCTTTGAAGGAGCTATGAATCGATTGTTCCCAGAAGAGCAGGTCTACCCTCCCAAGAA,0.0807
CAATAAGTCAGTCACCGTGAAGCATTCTAAGCACTGAATAAGACAGAGCATCCATTCCACACCCTATTTCCATTCCCAGTTAATCTTCAAAGAGTCAACATGGCAAAAACATTCCAAGATAAAAATAGCAAGATCTTCTAGAAAAGATTTAAGTTTCAAGGCAAAAAGAAAAATCCTTTATGGTTACTGAGTA,0.0478
CCCTACAATGGCTGGAATATGGAGTGAAATGCCAGGGTGGTCCCTACTAAGTGCATGGACATGGTAGGTTAACTGCTTTTTTTCTAGGAGCTGAGTAAACAGAGAGGGTCACACAGAAAAACATTTGTTTCTGTTTTGATCATGCCCTTTTAAGGTGCATGTTATACAGATCAAGATTCCAACTGCTACGAGT,0.347
CACATAGACTACAGTCTATGAAAAACATATTCATTTTTTAGGATAATATATAAGATCTCTGAAATGACAATTCACACAAAAGTAATAAAAATGTAAACAAGCATCAAAACTGATACAACAGATCACACTAATTGCCAAAAGTGCAGAAAGAGAAAAATTGGGTATAACAGCAATAACCTTATAAAATGTCAGA,0.295
AGGTAGATCAAGTACTCATATCTCTATGTACAGATGACAATAAGTGATTTCTCAGGAGCAAACAAGGGGAGTTATTGTGATTGTCTGATGGTTAGATTACTCTGAGACTTACTCTGTTTCAACTTTCCACCTTTTCTTTATTTTCCGTCCCAGACAGAAAGATTCTTCTTCTAGATAGACTGTTACTTCTACT,0.0678
TGATATCAGGTTAAAAGAAACATTTCCTGGCAGATGCACAGCTCTGGAAAATTTTGTTTTCCAAACGTCTGGAAAACAAAAGGAAAGCTTCCTTTGTTTACATAGCCAAGAAGGTTGAGTGATGAGAATCAGAAAAGATTTTGAAGCAATACAAGATCTTCTCCTAGGGCCATTAGAGATCAGCTAATCTGTT,0.49
